Experimental data of several laboratories.
Each line is one published result; not all experiments were run side by side. Values joined by “and” are separate records of one study, mostly repeats; a detail may differ. ± marks the error that the study gave.
WEE1/CRBN: WEE1/CRBN (Homo sapiens, UniProt P30291+Q96SW2)
IDO1: Indoleamine 2,3-dioxygenase 1 (IDO1, Homo sapiens, UniProt P14902)

Protein sequences, listed by entry. Tags and fused reporters are not part of them. Residues count along the entry.
UniProt Q8IXJ6, whole entry, looked up: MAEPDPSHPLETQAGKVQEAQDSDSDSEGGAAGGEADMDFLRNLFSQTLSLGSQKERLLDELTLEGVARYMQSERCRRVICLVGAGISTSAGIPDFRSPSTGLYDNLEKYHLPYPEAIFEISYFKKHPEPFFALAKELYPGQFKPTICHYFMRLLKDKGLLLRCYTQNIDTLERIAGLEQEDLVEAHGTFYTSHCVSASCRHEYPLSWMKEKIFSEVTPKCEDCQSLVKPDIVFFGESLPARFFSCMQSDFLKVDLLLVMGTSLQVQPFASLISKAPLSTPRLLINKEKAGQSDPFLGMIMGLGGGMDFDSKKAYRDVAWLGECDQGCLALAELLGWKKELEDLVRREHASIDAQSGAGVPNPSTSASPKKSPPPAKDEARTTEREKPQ
UniProt Q5S007, whole entry: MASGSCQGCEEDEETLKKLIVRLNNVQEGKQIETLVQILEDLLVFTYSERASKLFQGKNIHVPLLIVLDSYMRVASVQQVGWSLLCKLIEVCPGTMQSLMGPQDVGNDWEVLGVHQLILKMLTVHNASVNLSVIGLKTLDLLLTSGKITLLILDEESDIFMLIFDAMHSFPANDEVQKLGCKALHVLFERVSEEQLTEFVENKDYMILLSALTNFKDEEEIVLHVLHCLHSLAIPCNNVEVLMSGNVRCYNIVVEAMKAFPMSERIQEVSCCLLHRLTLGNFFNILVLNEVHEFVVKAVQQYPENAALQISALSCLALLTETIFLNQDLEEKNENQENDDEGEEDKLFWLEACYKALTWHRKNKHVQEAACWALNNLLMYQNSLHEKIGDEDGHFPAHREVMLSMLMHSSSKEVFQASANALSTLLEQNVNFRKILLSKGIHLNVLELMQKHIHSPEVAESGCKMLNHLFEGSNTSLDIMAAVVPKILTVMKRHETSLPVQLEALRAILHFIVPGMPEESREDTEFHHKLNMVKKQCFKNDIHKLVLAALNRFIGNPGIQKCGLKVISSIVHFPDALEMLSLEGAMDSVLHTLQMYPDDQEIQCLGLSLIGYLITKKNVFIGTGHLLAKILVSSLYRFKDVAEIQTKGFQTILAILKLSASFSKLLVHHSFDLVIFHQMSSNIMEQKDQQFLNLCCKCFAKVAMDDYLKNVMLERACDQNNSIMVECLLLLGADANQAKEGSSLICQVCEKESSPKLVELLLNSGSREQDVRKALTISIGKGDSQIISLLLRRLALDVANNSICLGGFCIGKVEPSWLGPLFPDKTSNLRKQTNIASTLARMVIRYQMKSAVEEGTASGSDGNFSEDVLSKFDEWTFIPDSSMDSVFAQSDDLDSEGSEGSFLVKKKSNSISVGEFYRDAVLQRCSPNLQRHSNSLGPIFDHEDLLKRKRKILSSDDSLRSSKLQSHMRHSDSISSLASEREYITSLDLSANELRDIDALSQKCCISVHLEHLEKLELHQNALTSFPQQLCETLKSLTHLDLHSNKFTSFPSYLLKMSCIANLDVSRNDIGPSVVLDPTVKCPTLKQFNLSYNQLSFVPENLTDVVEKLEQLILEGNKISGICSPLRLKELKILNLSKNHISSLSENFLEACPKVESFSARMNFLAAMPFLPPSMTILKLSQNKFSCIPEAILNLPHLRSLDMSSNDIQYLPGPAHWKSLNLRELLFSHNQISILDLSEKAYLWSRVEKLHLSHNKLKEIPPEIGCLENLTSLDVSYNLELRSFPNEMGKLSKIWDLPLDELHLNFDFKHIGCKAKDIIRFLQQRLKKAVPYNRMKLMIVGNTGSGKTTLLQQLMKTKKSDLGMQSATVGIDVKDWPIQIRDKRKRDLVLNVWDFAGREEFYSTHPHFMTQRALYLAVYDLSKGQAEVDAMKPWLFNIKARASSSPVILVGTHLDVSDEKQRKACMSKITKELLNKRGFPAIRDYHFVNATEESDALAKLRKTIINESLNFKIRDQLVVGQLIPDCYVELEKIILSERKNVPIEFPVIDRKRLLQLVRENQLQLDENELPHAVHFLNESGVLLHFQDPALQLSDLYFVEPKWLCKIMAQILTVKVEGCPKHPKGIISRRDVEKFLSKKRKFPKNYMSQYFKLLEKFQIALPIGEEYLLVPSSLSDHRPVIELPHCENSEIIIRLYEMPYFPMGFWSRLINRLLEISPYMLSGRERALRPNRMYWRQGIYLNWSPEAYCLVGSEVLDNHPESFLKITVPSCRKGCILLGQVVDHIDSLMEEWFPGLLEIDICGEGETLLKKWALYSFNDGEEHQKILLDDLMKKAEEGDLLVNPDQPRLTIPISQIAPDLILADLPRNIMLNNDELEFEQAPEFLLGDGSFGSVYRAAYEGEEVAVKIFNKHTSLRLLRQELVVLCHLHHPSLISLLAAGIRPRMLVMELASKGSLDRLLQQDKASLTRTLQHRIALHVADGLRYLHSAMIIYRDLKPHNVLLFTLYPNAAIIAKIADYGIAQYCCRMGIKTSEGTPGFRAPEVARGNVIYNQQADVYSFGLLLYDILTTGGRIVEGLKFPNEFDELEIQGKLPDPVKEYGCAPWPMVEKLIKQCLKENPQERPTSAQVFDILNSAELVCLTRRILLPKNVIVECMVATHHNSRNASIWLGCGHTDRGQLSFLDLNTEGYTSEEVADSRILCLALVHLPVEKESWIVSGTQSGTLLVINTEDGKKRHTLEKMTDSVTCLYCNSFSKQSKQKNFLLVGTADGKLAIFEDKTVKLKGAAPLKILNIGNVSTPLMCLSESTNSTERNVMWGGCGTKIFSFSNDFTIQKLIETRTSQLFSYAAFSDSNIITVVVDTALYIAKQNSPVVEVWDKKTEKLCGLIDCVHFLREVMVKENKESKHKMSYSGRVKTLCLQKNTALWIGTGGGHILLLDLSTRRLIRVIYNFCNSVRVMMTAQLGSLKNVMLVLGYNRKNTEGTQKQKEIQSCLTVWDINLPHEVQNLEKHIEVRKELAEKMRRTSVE
UniProt P31421, 19-872 limits assumed: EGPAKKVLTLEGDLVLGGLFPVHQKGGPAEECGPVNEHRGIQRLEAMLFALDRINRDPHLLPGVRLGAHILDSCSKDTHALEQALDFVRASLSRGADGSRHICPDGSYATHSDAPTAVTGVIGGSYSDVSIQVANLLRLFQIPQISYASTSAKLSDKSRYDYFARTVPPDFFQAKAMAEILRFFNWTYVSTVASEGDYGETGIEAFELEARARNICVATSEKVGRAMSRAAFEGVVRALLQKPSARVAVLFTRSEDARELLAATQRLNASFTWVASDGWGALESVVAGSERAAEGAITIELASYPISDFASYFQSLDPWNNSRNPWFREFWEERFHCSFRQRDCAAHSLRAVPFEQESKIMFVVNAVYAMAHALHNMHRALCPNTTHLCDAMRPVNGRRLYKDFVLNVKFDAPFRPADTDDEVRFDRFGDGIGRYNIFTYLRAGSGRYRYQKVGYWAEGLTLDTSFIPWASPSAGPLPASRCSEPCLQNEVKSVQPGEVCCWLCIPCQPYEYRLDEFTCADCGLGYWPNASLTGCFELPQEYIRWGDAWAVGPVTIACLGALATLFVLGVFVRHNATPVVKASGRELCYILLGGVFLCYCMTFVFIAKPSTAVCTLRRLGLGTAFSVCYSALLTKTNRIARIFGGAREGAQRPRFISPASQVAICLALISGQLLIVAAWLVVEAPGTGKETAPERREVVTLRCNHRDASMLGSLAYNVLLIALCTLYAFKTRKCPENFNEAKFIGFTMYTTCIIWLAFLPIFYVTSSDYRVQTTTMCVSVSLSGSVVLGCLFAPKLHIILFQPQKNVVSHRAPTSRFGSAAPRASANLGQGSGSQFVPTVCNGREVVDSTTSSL
UniProt P53779, 1-422 isoform 2: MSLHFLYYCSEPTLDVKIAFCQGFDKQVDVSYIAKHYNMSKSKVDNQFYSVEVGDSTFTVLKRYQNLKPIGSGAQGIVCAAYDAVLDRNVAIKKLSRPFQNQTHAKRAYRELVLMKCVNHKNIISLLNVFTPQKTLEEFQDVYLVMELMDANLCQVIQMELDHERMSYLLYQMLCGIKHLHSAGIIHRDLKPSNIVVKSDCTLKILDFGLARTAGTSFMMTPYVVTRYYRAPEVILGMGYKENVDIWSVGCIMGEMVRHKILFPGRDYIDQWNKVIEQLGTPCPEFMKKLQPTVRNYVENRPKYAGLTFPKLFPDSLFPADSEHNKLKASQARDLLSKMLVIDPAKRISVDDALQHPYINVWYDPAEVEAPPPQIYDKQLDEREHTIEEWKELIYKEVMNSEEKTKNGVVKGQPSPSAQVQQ
UniProt O75874, whole entry R132H: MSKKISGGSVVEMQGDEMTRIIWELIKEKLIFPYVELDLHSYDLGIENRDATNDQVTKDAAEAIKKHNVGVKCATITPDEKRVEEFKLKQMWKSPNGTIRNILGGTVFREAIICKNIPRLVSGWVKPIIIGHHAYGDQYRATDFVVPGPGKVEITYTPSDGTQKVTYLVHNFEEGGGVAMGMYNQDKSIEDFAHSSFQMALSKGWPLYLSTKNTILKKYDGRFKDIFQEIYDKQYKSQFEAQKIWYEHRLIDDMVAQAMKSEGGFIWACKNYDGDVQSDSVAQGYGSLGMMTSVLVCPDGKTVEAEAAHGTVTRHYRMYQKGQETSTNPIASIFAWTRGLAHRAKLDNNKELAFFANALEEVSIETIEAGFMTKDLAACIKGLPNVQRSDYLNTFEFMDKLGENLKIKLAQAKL
UniProt P29466, whole entry, looked up: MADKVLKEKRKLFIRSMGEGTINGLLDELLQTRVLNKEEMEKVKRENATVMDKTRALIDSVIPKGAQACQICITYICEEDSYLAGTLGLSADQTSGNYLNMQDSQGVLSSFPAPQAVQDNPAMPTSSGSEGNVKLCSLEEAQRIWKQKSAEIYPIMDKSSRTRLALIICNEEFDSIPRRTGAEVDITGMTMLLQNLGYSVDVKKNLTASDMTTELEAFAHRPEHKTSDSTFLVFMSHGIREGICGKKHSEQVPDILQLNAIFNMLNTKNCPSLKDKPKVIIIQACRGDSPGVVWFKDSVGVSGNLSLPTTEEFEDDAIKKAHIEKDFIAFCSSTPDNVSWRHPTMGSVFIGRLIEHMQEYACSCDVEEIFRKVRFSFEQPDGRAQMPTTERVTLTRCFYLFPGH
UniProt Q03137, 20-547 limits assumed: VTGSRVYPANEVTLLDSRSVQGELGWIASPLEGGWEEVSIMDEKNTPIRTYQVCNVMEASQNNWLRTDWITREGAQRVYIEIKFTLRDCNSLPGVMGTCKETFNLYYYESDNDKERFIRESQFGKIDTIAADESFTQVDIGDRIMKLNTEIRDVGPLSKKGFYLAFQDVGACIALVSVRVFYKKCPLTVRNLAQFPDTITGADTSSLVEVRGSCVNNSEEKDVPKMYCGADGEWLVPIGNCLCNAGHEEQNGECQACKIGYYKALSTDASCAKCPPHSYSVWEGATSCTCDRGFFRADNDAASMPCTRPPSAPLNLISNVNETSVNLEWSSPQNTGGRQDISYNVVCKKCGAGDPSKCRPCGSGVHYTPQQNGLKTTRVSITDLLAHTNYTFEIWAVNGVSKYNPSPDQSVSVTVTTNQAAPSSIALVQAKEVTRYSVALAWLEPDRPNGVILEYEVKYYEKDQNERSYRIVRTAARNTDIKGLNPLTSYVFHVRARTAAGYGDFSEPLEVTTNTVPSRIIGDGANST
UniProt Q9NR97, 27-1041 limits assumed: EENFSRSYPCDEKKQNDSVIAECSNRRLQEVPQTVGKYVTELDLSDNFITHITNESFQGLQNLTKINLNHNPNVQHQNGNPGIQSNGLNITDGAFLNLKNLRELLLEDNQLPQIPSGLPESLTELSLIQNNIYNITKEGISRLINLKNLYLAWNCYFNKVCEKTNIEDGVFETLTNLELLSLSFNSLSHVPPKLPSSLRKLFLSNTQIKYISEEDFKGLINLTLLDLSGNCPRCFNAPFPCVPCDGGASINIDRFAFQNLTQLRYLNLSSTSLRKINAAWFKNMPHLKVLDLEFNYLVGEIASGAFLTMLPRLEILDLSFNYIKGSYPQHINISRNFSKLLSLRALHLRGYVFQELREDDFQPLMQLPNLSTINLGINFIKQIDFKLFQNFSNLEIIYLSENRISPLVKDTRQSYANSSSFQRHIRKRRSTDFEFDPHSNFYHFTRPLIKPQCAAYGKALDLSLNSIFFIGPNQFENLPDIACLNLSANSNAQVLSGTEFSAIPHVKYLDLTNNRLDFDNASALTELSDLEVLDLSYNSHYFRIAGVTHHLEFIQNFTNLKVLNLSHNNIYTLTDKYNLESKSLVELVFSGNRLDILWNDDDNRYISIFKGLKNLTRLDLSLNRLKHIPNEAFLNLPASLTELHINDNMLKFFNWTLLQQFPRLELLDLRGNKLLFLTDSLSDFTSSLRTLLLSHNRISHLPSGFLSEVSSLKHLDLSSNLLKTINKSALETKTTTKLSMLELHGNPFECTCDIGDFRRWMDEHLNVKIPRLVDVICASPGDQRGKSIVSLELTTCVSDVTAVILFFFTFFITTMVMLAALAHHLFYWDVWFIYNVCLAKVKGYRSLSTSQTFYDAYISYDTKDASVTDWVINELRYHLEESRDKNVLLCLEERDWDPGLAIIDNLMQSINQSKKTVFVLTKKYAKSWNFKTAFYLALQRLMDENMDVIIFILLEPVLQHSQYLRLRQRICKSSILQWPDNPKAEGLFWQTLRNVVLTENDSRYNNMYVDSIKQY

SMILES | target or system | test | system | conditions | scale | measurement | result
CCCCCCCCCCCCNC(=S)NCCCC[C@H](NS(=O)(=O)c1ccccc1)C(=O)N[C@H](C)C(=O)N[C@@H](CCCNC(=N)N)C(N)=O | NAD-dependent protein deacetylase sirtuin-2 (SIRT2, Homo sapiens, UniProt Q8IXJ6) | deacetylation, inhibitor |  | NAD+ 500 µM, with: acetylated peptide 50 µM |  | IC50 | 190 ± 20 nM
O=C(Nc1ccc(Cl)cc1)C(NS(=O)(=O)c1cccs1)c1ccc(-c2ccccc2)cc1 (centres unmarked) | Uracil nucleotide/cysteinyl leukotriene receptor, long isoform (GPR17, Homo sapiens, UniProt Q13304) | calcium mobilization, antagonist | 1321-N1 |  |  | IC50 | 3180 ± 430 nM
C=CC(=O)Nc1cccc(Nc2nc3c(-c4ccccc4)cccn3n2)c1 | Vacuolar protein sorting-associated protein 4B (VPS4B, Homo sapiens, UniProt O75351, D135C) | ATPase activity, inhibitor |  | 30 min, with: VTA1 stimulation, 1 mM ATP |  | IC50 | 410 nM
O=C1CCC(N2Cc3cc(-c4nc5ccccn5c4Nc4ccccc4)ccc3C2=O)C(=O)N1 (centres unmarked) | WEE1/CRBN | degrader, HiBiT luciferase | Jurkat (HiBiT-tagged) | 5 h |  | DC50 | 1.9 ± 1.1 nM
O=C(O)c1cc(C(=O)N[C@@H](Cc2ccc(O)cc2)C(=O)O)cc([C@H]2CCN[C@@H]2C(=O)O)c1 | Glutamate receptor ionotropic, NMDA 2C, with GluN1 (Rattus norvegicus, UniProt Q00961) | ion current, antagonist, two-electrode voltage clamp | Xenopus oocytes | GluN1/GluN2C, with: glycine 100 µM and glutamate 1 µM |  | IC50 | 9700 ± 480 nM
Cc1csc(-c2ccc(-c3csnn3)cc2)n1 | ALK tyrosine kinase receptor (ALK, Homo sapiens, UniProt Q9UM73) | ELISA |  |  |  | IC50 | 100000 nM
CC(C)Oc1cc(C(=O)N2CCC(N3CCN(C)CC3)CC2)ccc1Nc1ncc2c(n1)N(C1CCCC1)c1ccccc1C(=O)N2C | Leucine-rich repeat serine/threonine-protein kinase 2 (LRRK2, Homo sapiens, UniProt Q5S007) | kinase activity, Adapta |  |  |  | IC50 | 296 ± 31 nM
COc1cc(Nc2ccnc3cc(C#N)ccc23)cc(OC)c1OC | Atypical kinase COQ8A, mitochondrial (COQ8A, Homo sapiens, UniProt Q8NI60) | target engagement, NanoBRET | HEK293 expressing NanoLuc fusion |  |  | IC50 | 580 nM
CC(C)(C)CC(C)(C)Nc1c(-c2ccc3c(c2)C(=O)N(C2CCC(=O)NC2=O)C3=O)nc2ccccn12 (centres unmarked) | WEE1/CRBN | degrader, HiBiT luciferase | Jurkat (HiBiT-tagged) | 5 h |  | DC50 | 22 ± 5 nM
COc1ccc(C(=O)N2C[C@H](O)C[C@H]2C(=O)NCc2ccc(Cl)cc2)cc1OC | von Hippel-Lindau disease tumor suppressor, with elongin B, C (VHL, Homo sapiens, UniProt P40337) | binding, fluorescence polarization |  | 10% DMSO, with: FAM-HIF1α peptide tracer |  | IC50 | 24000 ± 2000 nM
COc1ccc(-n2cc(C(N)=O)c(=O)c3cc(CCc4cnc(C)nc4)ccc32)cc1 | Metabotropic glutamate receptor 2 (Grm2, Rattus norvegicus, UniProt P31421) | calcium mobilization, negative allosteric modulator |  |  |  | IC50 | 136 nM
Cc1cc(S(=O)(=O)N2CCCCC2)ccc1Cl | Melanopsin (OPN4, Homo sapiens, UniProt Q9UHM6) | calcium release, antagonist, FLIPR Fluo-4 | CHO cells expressing human OPN4 |  |  | Kb | 260 nM
COc1ccc2c(c1)c(CC(=O)NCCCCNC(=O)c1ccc(C3=c4cc5c6c(c4Oc4c3cc3c7c4CCCN7CCC3)CCC[N+]=6CCC5)c(C(=O)NC3CC(C)(C)N(O)C(C)(C)C3)c1)c(C)n2C(=O)c1ccc(Cl)cc1 | Prostaglandin G/H synthase 1 (PTGS1, Ovis aries, UniProt P05979) | enzyme activity, inhibitor, TLC |  | with: [14C]arachidonic acid |  | IC50 | > 4000 nM
COC(=O)[C@@]1(C)C=C(C(=O)Nc2cccc(C(=O)NC34CC(Nc5nccc(-c6cccnc6)n5)(C3)C4)c2)C(=O)CC1 | Mitogen-activated protein kinase 10 (MAPK10, Homo sapiens, UniProt P53779) | enzyme activity, inhibitor |  | 0.02032 µM |  | remaining activity | 0.574 fraction of control
COC(=O)[C@@H]1C(C=Nc2cncnc2N)=Cc2cc3c(cc2[C@H]1c1cc(OC)c(OC)c(OC)c1)OCO3 | Leishmania |  | mouse splenocytes |  | reference: CC50 over amastigote EC50 | selectivity index | > 1.5
Cc1ncsc1-c1ccc([C@H](C)NC(=O)[C@@H]2C[C@@H](O)CN2C(=O)[C@@H](NC(=O)CCCCCCC(=O)N2CCN(C[C@]3(C)CCC(c4ccc(Cl)cc4)=C(CN4CCN(c5ccc(C(=O)NS(=O)(=O)c6ccc(N[C@H](CCN7CCOCC7)CSc7ccccc7)c(S(=O)(=O)C(F)(F)F)c6)cc5)CC4)C3)CC2)C(C)(C)C)cc1 |  | refers to: SASP and necroptosis markers | STAM mice NASH-HCC model, liver | dose not given, day 150, treated days 90-150 |  | mRNA level | decreased
CC(C)CNC(=O)CSc1nc2ccc(NC(=O)CSc3ccc(C(C)C)cc3)cc2s1 | Estrogen receptor (ESR1, Homo sapiens, UniProt P03372) | reporter gene, antagonist | HEC-1 transfected ERα luciferase reporter |  |  | IC50 | > 50000 nM
COC(=O)/C(=C/c1c[nH]c2ccc(OC)cc12)c1ccc(F)cc1 | IDO1 | enzyme activity, inhibitor |  |  |  | IC50 | > 50000 nM
O=C(Nc1ccc(-c2nc3ccc(NC(=O)C4CCOCC4)cc3s2)cc1)C1CCOCC1 | Tyrosine-protein kinase SYK, with FCER1G (SYK, Homo sapiens, UniProt P43405) | protein binding, inhibitor, TR-FRET |  |  |  | IC50 | > 20000 nM
COc1cc([C@@H]2c3cc4c(cc3[C@@H](OC(C)C)[C@H]3COC(=O)[C@H]23)OCO4)cc(OC)c1OC | Leishmania infantum | Alamar Blue | HepG2 |  | reference: CC50 HepG2 over EC50 amastigotes | selectivity index | > 1.3
Nc1ncc(-c2ccc3ncnc(N4CCc5cc(F)c(Cl)cc54)c3c2)cn1 |  |  | CD1 mouse, plasma | intraperitoneal, 50 mg/kg |  | Tmax | 1 h
C[C@H](Nc1nc(N[C@@H](C)C2CC2)nc(-c2cccc(C(F)(F)F)n2)n1)C1CC1 | Isocitrate dehydrogenase [NADP] cytoplasmic, homodimer (IDH1, Homo sapiens, UniProt O75874, R132H) | enzyme activity, inhibitor, diaphorase/resazurin coupled |  |  |  | IC50 | 59 nM
CS(=O)(=O)Nc1cccc(/C=C/c2c[nH]c3ccc(C#N)cc23)c1 | IDO1 | enzyme activity, inhibitor |  |  |  | IC50 | 4800 nM
O=C(CN1C(=O)C=CC1=O)N1CCN(c2cc(N3CCCC3)nc(N3CCCC3)n2)CC1 | Caspase-1 (CASP1, Homo sapiens, UniProt P29466) | enzyme activity, inhibitor |  | 30 min preincubation, with: Ac-WEHD-AMC 10 µM |  | IC50 | 144 nM and 134 nM
NCCC(=O)N[C@@H](Cc1c[nH]c2ccc(O)cc12)C(=O)N[C@@H](Cc1ccc(Cl)cc1)C(=O)N[C@@H](Cc1ccncc1)C(=O)N[C@H](Cc1c[nH]c2ccccc12)C(N)=O | Ephrin type-A receptor 4, extracellular domain (Epha4, Mus musculus, UniProt Q03137) | ephrin-A5 binding, inhibitor, ELISA |  |  |  | IC50 | 3400 nM
COc1ccc(S(=O)(=O)N2CCN(c3ccc([N+](=O)[O-])c4ncccc34)CC2)cc1 | Toll-like receptor 8 (TLR8, Homo sapiens, UniProt Q9NR97) | reporter gene, inhibitor, SEAP reporter | HEK-Blue TLR8 |  |  | IC50 | 5180 ± 670 nM

Some of these lines once more:
SMILES | target or system | test | system | conditions | scale | measurement | result
COC(=O)[C@@]1(C)C=C(C(=O)Nc2cccc(C(=O)NC34CC(Nc5nccc(-c6cccnc6)n5)(C3)C4)c2)C(=O)CC1 | Mitogen-activated protein kinase 10 (MAPK10, Homo sapiens, UniProt P53779) | enzyme activity, inhibitor |  | 0.02032 µM |  | remaining activity | 0.574 fraction of control
COC(=O)[C@@H]1C(C=Nc2cncnc2N)=Cc2cc3c(cc2[C@H]1c1cc(OC)c(OC)c(OC)c1)OCO3 | Leishmania |  | mouse splenocytes |  | reference: CC50 over amastigote EC50 | selectivity index | > 1.5
